Experimental data collected from several papers.
Parts stem from different laboratories: compare values within a part only. Changes are numbered by the printed parent chain.

Block 1
Target: ABI1, truncated, D143A, DHFR fusion (Arabidopsis thaliana)
Method: DHFR PCA, deep sequencing
Sample: yeast
Notes: methotrexate growth selection, single substitutions
Together with: (+)-ABA 17 µM
Baseline: wild-type fitted maximum
Direction: higher = stronger binding
Parent: PYL1, truncated, DHFR fusion (Arabidopsis thaliana); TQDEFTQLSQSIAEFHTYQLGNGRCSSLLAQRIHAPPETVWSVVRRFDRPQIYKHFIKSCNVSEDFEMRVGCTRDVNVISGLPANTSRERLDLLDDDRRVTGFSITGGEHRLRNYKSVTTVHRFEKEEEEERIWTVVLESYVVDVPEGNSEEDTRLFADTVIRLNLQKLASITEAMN; partner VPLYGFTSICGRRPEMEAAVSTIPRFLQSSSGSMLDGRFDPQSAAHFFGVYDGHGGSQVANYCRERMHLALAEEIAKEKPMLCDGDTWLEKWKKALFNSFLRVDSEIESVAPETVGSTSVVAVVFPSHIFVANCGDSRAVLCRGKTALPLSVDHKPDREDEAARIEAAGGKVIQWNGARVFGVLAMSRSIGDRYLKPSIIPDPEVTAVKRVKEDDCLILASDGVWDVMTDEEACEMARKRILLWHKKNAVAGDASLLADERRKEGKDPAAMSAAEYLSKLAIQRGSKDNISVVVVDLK
Substitution	relative binding score [%]
V62E	-22.5
E109A	65.9
Y115D	-2.81
E129H	86.9
D92M	28.1
T17S	77.1
K58D	57.6
S11F	74.2
E38T	57.7
P146D	3.59
T135F	-4.63
R88W	52.1
Q31Y	30.4
R69N	75.3
V145I	92.1

Block 2
Target: RING finger protein unkempt homolog, zinc fingers 1-6, GST-SBP tag (UNK, Homo sapiens, UniProt Q9C0B0, residues 30-357)
Chain of UniProt Q9C0B0 (30-357, looked up): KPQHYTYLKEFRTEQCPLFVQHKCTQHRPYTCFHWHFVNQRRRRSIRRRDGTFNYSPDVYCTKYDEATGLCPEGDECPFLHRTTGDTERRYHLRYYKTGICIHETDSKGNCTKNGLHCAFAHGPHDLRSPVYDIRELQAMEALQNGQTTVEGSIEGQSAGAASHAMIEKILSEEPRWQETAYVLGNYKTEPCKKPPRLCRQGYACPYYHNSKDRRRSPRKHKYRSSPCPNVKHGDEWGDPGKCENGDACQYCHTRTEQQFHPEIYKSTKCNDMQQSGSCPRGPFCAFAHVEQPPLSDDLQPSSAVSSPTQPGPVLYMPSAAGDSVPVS
Method: RNA Bind-n-Seq
Form: RNA
Sample: in vitro
Concentration: not given
Notes: RNA with constant flanks, human-mouse chimeric sites, ends assumed
Baseline: input RNA pool
Direction: higher = stronger binding
Shared flanks, not repeated: GGGAGUUCUACAGUCCGACGAUC … CAACAGAGGAUUGAGCAUCA
Sequence	bound/input enrichment
AAAGAACCUCUCUCUGAAGAAGAGGAAGAAGACAAUGAUGAUGUUGAACCCAUUUCUGAAUUUAGAUUUGUGCCCAGUGAUAAGUCAGCAUUGGAGGCGAUGUUCACAGCAAUGUGUGAG	1.21 ratio
ACAGUUAUAUUGUUGAGUUUCAUUUUCUUGUAUGUUUGUAGUGUCUGCUUGCCUGUGACUUCUGGUAAAAUAAGACUAGCCUUUGAAAAUAUUUUAGCAUGGUAUUUAACAUUUUCUAAA	4.49 ratio
ACUCAGAGAUCCACCUCCCAAAGUGCUCUGGAGCUCUGUGUGGCCACCACACCUAACUUGAUGGAUAUAUAUUUUUUUUAAUAUGAAUGAACUCUUGCGUCCAGGGAAGAAAGAUUUGUU	0.69 ratio
GUCAACAGCUGCCUCAACCCCAUCCUCUAUGCUUUCUUGGAUGAGAACUUCAAGGCCUGCUUCCGCAAGUUCUGCUGUGCAUCUGCCCUGCGCCGGGACGUGCAGGUGUCUGACCGCGUG	0.394 ratio
CAGUCCCCGUGUCCCAGUGCAGGACGAGAACAUGGACAACUCAAAGCGGCCCUUUCUUUGUAGUUCUUGAUUCUCGAAAUGUGCUAUUAUUGUUUGUCUUUUUUUUUUUUUUUUUAAAGA	0.689 ratio
GAUCAUGAACCACCAUCAGAAAUGAAGAUGAGAUUACCCAGACGAGCCAAAACAGCUGCGCUACAGAAAAGUAAACUUAACCUUGCACCAAUUUCUCAAUGAAGAUCAAGUUAAGAGAGC	0.347 ratio
UUAAACACCAAGCUGAUGGACUCUGAUGGCCUCCAUCUCUCAGGCACGUGUGCCUUCUCUUAGUCCCUGUUUUCGGGAUGUUAUGAAUCUCAGUACUGUUUGACAGAAGCACCAGCUUUG	0.172 ratio
GUGUCCUGCUUUCAACUUAAAUCACUGCAUUUUUACUACUGUUCUGUGAGCAUCAGGACUGUAGCGCUUGCCACCACCAUGAGAGUUCAGAAGCAGCCUUUCUGUGGAGGGUGGGAAUGA	0.173 ratio
CGCUGGCCCAAGCUGAUGGACUCUGAUGGCCUCCAUCUCUCAGGCACGUUUGCCUUCUCUUAGUCCCUUCUGGGUUGAUGUUAUGAAUCUCAGUACUGUGGUUUGAAAGCACCAGCUUUG	0.437 ratio
GUGACAGGUGUUAAGAUUUCCCCUCAGAAAAGAACUGCAGUAGUCACCAUAAUUCCAUCUGUGGUGAGUGCCAGUCAGAUUGUGGAGCUGGUCCCAGACCUCAGUUUAGACAUGGGAACU	0.349 ratio
UCAGGAACUCAGACAAACAUGAAUGUAAAUGAAGUCAUUAGCAACAGAGCAAUUGAAAUGUUAGGAGGUGAACUUGGCAGCAAGAAGCCUGUGCACCCCAACGAUCAUGUUAACAAAAGC	0.147 ratio

Block 3
Target: Fragile X messenger ribonucleoprotein 1, C-terminal low-complexity region (Fmr1, Mus musculus, UniProt P35922)
Method: RNA Bind-n-Seq
Form: RNA
Sample: in vitro
Concentration: 200 nM
Notes: whole 134-nt RNA, ends assumed
Together with: 150 mM LiCl
Baseline: input library
Direction: higher = stronger binding
Each molecule: 7-deaza-guanosine replaces G
Shared flanks, not repeated: GGGAGUUCUACAGUCCGACGAUC … UGGAAUUCUCGGGUGUCAAGG
Sequence	log2 enrichment
UCCUGUGCUACACAUCGUAUGUACCGAAUCGGAAAAAAGGAAAAAAGGGGAAAAAAGGGAAAGUAUUAUGUUACGCCGUUCGGAUCUGCA	-0.763
UCAAGUCCUGUGCUACACAUCGUAUGUACCGAAUCGGGGCCCGGCCCGGGCCCGGAAAGUAUUAUGUUACGCCGUUCGGAUCUGCACUUC	-1.23
CCAUAGACCCCUUUCUUCUCCCCUUCCCCACGGUAGGAACAUAGCGUGUUUAUAUUUUAUGGCCAAACUAUUUUGAAUUUUGUUGUCCGG	0.966
UAACUUUAGAGGAGGAUCUGAUGGAUAUGGCAGUGGACGUGGAUUUGGGGAUGGCUAUAAUGGGUAUGAAGGAGGACCUGGAGGUGGCAA	-0.00307
UGGCUGGCUGUGGCCUCACAGCUGAGGACUGCAAGGACCUUGCCUUUGGGCUGAGAGCCAACCAGACCCUGACCGAGCUGGACCUGAGCU	-4.44
AGUCCUGUGCUACACAUCGUAUGUACCGAAUCGGGGAAAAAGGAAAAAGGAAAAAGGAAAGUAUUAUGUUACGCCGUUCGGAUCUGCACU	-1.44
UGGGAGGUGGAUUUUGUUUAUUUUUUUAGCUCAUUUCCAGGGGUGGGAAUUUUUUUUAAAUAUGUGUCAUGAAUAAAGUUGUUUUUGAAA	-0.329
GUCCUGUGCUACACAUCGUAUGUACCGAAUCAAAUUUUUUUAAAUUUUUAAAUUUAAAAAAGUAUUAUGUUACGCCGUUCGGAUCUGCAC	-3.41
UCAAGUCCUGUGCUACACAUCGUAUGUACCGAAUCGGUUUUUGGAAAAAGGAGGAAAGUAUUAUGUUACGCCGUUCGGAUCUGCACUUCC	-0.421
AGUCCUGUGCUACACAUCGUAUGUACCGAAUCGGGAGGGAAAAAAAGGGAAAAAGGGAAAGUAUUAUGUUACGCCGUUCGGAUCUGCACU	-0.618
GCAGGAAGUAAAAACAAAUGGAAAUGCUUCGGAUAGUGGCAGGGGUGGGGGUAAAUAAGGAAAGGGUGGGAUGGGAGUGGGUAAAGAGUU	1.75

Block 4
Target: CREBL2, bZIP domain (human)
Method: DHFR protein complementation
Sample: yeast
Notes: single substitutions, most at no-binding floor
Baseline: wild-type JUN-FOS pair
Direction: higher = stronger binding
Parent: JUN, bZIP domain (human); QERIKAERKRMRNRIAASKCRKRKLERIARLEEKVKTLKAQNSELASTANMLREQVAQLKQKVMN; partner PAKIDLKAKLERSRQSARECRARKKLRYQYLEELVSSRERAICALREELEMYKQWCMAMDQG
Substitution	binding fitness [natural log]
S47N	-1.4
E44A	-1.52
R30H	-1.55
S47Y	-1.56
R53K	-1.56
A49V	-1.34
T48C	-1.42
S43K	-1.51
V56G	-1.55
E44K	-1.57
L45T	-1.52
N42G	-1.5
A49H	-1.53

Block 5
Target: CCNB2, cyclin fold, Cln2 fusion (human)
Method: yeast growth competition, sequencing
Sample: yeast
Notes: weak parent motif
Baseline: not given
Direction: higher = stronger binding
Parent: CDC6 docking peptide (human); TLKGRRLVFDNQL
Substitution	normalised enrichment score
TLKARRLVFDNQL [G4A]	0.16
TLKGRRLGFDNQL [V8G]	0.32
TLIGRRLVFDNQL [K3I]	0.407
TLKGRRRVFDNQL [L7R]	0.577
LLKGRRLVFDNQL [T1L]	-0.00134
TLKGRKLVFDNQL [R6K]	-0.117
TLKGRRLVVDNQL [F9V]	-0.267
TLCGRRLVFDNQL [K3C]	-0.00283
TSKGRRLVFDNQL [L2S]	-0.388
TFKGRRLVFDNQL [L2F]	-0.285
TLKGRWLVFDNQL [R6W]	-0.908
PLKGRRLVFDNQL [T1P]	-0.0893
TLKGRRLVFDCQL [N11C]	0.142
TLKGRRLVFDNDL [Q12D]	0.229
TLKGRRLVSDNQL [F9S]	0.214
TLKGRRLVFDNTL [Q12T]	-0.246
TLKGRRLVFDNQW [L13W]	0.0904
